Assay results pooled from the literature.
Protocols differ between the studies behind these lines.
4'-phosphopantetheinyl transferase PptT: 4'-phosphopantetheinyl transferase PptT (Mycobacterium tuberculosis, UniProt O33336)
UniProt O33336, sequence (whole entry, looked up): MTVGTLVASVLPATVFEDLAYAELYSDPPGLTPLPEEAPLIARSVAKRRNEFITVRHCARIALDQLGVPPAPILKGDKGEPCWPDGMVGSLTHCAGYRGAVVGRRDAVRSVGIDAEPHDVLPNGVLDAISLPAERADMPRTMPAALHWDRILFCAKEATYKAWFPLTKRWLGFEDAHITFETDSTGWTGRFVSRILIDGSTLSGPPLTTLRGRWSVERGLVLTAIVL
UniProt P41595, sequence (whole entry, looked up): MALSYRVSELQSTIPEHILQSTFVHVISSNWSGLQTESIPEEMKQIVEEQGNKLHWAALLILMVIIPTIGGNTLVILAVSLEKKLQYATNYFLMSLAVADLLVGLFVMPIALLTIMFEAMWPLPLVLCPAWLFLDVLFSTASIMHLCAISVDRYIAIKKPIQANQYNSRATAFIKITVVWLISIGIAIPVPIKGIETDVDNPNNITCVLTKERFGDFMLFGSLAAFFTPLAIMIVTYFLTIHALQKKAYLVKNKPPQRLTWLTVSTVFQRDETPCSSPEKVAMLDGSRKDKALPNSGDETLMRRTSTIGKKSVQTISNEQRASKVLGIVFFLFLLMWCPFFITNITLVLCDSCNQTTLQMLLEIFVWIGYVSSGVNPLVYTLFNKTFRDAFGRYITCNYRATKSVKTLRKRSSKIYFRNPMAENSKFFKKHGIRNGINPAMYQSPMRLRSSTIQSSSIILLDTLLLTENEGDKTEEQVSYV
UniProt P41145, sequence (whole entry, looked up): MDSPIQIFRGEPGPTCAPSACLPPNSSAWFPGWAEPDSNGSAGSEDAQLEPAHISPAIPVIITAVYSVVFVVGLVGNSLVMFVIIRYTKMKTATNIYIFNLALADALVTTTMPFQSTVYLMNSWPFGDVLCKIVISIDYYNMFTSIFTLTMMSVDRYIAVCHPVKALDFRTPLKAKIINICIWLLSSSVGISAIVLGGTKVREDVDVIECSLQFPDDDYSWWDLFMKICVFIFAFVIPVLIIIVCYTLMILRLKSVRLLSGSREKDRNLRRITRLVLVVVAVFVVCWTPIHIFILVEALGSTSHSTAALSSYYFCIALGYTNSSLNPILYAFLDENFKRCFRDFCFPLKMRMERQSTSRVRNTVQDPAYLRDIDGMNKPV
UniProt P08912, sequence (whole entry, looked up): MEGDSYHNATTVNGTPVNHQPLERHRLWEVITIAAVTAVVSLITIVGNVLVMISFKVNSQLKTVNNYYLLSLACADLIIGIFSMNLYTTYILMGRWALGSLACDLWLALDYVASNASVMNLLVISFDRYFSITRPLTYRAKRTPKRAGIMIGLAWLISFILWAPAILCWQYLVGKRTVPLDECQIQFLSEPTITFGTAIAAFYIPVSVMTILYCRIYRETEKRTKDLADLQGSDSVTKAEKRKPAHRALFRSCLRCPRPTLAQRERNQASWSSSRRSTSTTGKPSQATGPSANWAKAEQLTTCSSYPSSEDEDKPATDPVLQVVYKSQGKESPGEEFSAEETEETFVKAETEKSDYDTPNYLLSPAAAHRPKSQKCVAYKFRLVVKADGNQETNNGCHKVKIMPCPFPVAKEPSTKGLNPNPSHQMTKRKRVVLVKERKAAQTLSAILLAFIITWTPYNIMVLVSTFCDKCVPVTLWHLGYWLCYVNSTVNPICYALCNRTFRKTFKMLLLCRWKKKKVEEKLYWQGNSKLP
UniProt P34972, sequence (whole entry, looked up): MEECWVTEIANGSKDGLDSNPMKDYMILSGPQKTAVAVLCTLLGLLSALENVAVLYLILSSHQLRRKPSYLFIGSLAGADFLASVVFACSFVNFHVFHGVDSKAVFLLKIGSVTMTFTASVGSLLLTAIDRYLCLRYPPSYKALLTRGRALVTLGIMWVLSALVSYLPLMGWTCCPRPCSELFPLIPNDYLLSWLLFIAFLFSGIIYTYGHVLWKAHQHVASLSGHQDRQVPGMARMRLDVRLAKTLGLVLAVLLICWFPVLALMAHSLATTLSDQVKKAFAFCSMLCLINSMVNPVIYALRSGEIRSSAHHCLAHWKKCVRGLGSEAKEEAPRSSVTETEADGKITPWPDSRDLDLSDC
UniProt Q8IW41, sequence (whole entry, looked up): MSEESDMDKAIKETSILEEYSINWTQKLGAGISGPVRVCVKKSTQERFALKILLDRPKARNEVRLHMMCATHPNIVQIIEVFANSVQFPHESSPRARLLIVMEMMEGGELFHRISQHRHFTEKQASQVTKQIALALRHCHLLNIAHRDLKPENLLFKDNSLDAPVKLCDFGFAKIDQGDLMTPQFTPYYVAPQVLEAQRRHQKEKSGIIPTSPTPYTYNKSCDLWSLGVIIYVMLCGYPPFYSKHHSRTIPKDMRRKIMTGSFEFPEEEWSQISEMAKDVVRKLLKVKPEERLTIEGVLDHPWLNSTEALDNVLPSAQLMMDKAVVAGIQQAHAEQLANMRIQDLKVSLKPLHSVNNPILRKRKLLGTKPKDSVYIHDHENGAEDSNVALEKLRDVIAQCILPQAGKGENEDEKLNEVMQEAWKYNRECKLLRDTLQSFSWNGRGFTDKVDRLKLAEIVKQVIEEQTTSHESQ
UniProt P21860, sequence (whole entry, looked up): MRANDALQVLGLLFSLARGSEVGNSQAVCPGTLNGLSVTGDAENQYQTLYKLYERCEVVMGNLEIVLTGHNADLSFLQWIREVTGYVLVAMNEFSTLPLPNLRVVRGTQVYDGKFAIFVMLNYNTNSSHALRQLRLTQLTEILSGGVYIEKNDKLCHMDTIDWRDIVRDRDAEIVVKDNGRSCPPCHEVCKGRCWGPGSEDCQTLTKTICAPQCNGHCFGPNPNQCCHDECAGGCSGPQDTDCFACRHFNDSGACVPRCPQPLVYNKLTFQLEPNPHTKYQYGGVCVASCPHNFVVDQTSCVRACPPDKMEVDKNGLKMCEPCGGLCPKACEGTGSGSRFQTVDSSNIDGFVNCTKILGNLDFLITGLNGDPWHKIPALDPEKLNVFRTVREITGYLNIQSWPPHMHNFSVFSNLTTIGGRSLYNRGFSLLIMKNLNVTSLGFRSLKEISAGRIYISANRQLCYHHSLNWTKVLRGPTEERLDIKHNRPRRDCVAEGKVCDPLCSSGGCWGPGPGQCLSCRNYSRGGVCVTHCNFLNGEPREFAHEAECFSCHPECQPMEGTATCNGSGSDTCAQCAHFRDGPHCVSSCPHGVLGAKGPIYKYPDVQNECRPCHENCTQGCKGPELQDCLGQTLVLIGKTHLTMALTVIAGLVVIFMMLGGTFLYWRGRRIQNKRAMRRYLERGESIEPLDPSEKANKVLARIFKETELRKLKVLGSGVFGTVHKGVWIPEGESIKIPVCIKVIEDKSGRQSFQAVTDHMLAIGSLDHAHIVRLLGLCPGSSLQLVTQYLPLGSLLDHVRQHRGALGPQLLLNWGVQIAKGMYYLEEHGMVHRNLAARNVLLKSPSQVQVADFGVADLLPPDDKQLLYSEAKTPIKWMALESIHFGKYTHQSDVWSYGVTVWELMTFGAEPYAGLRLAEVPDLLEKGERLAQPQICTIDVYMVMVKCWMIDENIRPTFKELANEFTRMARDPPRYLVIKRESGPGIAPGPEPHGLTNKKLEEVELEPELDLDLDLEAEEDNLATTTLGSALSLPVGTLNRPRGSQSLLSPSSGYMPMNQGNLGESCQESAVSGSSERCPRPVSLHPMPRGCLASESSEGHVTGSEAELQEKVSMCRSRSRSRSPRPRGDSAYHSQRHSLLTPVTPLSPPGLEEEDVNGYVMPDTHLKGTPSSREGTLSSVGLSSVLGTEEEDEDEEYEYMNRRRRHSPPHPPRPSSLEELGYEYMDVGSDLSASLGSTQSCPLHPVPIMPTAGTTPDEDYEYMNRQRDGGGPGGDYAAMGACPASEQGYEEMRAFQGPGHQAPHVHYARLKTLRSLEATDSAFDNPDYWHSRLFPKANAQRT
UniProt O00329, sequence (whole entry, looked up): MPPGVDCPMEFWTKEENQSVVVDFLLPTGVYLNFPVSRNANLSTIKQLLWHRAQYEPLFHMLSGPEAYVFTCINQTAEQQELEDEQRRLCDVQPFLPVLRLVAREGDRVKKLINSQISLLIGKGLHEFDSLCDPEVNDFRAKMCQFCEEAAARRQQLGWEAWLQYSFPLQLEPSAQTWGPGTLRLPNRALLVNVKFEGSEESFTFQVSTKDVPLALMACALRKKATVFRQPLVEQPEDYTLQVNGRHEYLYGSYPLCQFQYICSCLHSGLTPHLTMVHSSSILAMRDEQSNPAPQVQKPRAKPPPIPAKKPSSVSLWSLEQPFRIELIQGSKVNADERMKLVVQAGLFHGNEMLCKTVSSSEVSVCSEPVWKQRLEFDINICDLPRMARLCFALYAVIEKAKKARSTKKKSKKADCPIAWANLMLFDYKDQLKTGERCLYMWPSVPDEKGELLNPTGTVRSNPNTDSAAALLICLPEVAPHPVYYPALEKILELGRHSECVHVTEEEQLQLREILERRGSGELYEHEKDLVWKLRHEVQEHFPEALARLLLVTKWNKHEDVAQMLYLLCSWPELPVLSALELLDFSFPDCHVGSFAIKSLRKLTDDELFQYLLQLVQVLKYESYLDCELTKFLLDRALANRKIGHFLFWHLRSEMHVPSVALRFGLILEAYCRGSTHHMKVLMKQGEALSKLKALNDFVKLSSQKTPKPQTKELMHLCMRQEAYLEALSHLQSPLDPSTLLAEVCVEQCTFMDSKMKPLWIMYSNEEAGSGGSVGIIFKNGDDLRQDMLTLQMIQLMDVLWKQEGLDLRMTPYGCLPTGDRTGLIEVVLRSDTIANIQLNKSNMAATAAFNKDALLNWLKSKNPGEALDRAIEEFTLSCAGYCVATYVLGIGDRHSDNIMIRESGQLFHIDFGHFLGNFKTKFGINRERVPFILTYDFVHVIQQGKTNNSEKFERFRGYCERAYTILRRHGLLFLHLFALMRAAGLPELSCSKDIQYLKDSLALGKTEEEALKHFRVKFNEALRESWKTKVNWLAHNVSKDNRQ

For `COc1cc(CCNC(C)c2ccccc2O)c(OC)cc1C#N` (single isomer, unassigned; (-)), the Emax was 46% (HTR2B (Homo sapiens, UniProt P41595); G protein activation, agonist, BRET).
For `Cc1nn(C)cc1-c1nc2c(N3CCN(Cc4ccc(Cl)cc4)CC3)c(Cl)cnc2[nH]1`, the remaining binding was 100% (Ribosomal protein S6 kinase alpha-2, N-terminal kinase domain (RPS6KA2, Homo sapiens, UniProt Q15349); binding, competition with immobilised ligand; 1 µM).
`Nc1ncc(-c2nc(N3CCOCC3)nc(N3CCOCC3)n2)c(C(F)F)n1` gave a remaining binding of 54% (ANKK1 (Homo sapiens, UniProt Q8NFD2); binding, competition with immobilised ligand; 10 µM).
With `COc1ncccc1-c1cnn2ccc(N3CCN(C(=O)OC(C)C)CC3)nc12` the remaining binding was 100% (ERBB3 (Homo sapiens, UniProt P21860); binding, competition with immobilised ligand; 1 µM).
With `O=c1c2cc(Cl)ccc2[nH]c(=S)n1CCc1cccnc1` the IC50 was 1.83 µM (4'-phosphopantetheinyl transferase PptT; enzyme activity, inhibitor, FP).
For `[2H]c1c([2H])c([C@]2([2H])CCCN2C(=O)C(C)(C)Oc2ccc3cn[nH]c3c2)c([2H])c([2H])c1C([2H])([2H])[2H]`, the remaining binding was 96% (PIK3CD (Homo sapiens, UniProt O00329); binding, competition with immobilised ligand; 1 µM).
`O=c1[nH]c2cc(CO)c(Cl)cc2c(=O)n1Cc1cccnc1` has an IC50 of 32.9 µM (4'-phosphopantetheinyl transferase PptT; enzyme activity, inhibitor, FP).
For `Brc1ccc2c(c1)C(c1ccccn1)=NCc1c(-c3cnco3)ncn1-2`, the inhibition was 61.6% (OPRK1 (Homo sapiens, UniProt P41145); ligand displacement, radioligand; 10 µM).
`CC(C)CC(=O)OC[C@H]1O[C@@](C#N)(c2ccc3c(N)ncnn23)[C@H](O)[C@@H]1O` has an inhibition of 8% (CNR2 (Homo sapiens, UniProt P34972); cell-free assay; 20 µM).
`CN1CC[C@]2(C)c3cc(OC(=O)Nc4ccccc4)ccc3N(C)[C@H]12` has an inhibition of 0% (CHRM5 (Homo sapiens, UniProt P08912); ligand displacement, radioligand; 10 µM).
With `C#Cc1n[nH]c2c(-c3cn([C@@H](C)c4ccccn4)c(=O)[nH]c3=O)cc(F)cc12` the inhibition was 3% (MAPKAPK5 (Homo sapiens, UniProt Q8IW41); enzyme activity, inhibitor; 0.1 µM).

Excerpt of the above:
With `COc1ncccc1-c1cnn2ccc(N3CCN(C(=O)OC(C)C)CC3)nc12` the remaining binding was 100% (ERBB3 (Homo sapiens, UniProt P21860); binding, competition with immobilised ligand; 1 µM).
`CN1CC[C@]2(C)c3cc(OC(=O)Nc4ccccc4)ccc3N(C)[C@H]12` has an inhibition of 0% (CHRM5 (Homo sapiens, UniProt P08912); ligand displacement, radioligand; 10 µM).
